{"data": "Experimental data pooled from the literature", "CNR2": "Cannabinoid receptor 2 (CNR2, Homo sapiens, UniProt P34972)", "EZH2": "Histone-lysine N-methyltransferase EZH2 (EZH2, Homo sapiens, UniProt Q15910)", "note": "Numbers after ± are the reported error.", "UniProt Q15910, sequence (whole entry, looked up)": "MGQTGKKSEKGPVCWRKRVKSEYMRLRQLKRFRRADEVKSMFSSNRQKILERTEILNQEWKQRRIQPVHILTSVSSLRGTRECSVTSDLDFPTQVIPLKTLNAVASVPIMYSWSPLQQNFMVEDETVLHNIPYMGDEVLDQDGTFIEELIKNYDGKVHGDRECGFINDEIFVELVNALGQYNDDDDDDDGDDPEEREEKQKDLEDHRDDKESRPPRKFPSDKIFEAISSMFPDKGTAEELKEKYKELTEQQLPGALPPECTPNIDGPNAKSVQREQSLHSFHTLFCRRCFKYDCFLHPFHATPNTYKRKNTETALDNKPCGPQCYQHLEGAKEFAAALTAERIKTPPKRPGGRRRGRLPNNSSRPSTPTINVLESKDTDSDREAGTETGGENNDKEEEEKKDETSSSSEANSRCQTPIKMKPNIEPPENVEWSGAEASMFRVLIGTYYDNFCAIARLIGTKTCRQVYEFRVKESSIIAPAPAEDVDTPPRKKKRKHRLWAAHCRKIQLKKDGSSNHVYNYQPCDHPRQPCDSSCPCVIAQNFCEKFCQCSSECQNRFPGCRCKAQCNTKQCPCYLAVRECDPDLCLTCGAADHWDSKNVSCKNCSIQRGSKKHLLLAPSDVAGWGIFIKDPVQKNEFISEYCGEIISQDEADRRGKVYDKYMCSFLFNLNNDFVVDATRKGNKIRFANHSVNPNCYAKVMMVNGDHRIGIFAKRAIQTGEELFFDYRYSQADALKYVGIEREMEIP", "UniProt P34972, sequence (whole entry, looked up)": "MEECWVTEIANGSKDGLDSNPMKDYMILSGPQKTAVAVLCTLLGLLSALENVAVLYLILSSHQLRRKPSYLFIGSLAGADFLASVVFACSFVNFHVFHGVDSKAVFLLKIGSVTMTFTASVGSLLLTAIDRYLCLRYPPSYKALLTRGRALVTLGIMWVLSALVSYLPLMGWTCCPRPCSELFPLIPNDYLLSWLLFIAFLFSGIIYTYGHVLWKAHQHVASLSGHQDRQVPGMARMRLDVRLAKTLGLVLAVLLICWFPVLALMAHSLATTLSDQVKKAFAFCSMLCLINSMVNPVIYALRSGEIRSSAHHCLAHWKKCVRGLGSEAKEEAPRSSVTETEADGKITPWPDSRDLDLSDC", "UniProt P21554, sequence (whole entry, unmodified, looked up)": "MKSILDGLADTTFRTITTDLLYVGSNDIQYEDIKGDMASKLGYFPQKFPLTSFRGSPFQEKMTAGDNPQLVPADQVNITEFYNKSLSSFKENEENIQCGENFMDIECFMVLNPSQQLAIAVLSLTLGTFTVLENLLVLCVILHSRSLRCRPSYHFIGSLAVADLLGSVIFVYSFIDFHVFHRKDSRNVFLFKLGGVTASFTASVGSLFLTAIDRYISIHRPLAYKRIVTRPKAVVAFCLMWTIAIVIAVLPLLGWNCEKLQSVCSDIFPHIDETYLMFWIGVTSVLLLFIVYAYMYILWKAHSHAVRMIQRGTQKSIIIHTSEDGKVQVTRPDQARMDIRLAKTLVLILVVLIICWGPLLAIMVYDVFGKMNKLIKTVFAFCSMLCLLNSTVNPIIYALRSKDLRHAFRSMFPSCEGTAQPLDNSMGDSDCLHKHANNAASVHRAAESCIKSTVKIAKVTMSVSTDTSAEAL", "UniProt P24723, sequence (whole entry, looked up)": "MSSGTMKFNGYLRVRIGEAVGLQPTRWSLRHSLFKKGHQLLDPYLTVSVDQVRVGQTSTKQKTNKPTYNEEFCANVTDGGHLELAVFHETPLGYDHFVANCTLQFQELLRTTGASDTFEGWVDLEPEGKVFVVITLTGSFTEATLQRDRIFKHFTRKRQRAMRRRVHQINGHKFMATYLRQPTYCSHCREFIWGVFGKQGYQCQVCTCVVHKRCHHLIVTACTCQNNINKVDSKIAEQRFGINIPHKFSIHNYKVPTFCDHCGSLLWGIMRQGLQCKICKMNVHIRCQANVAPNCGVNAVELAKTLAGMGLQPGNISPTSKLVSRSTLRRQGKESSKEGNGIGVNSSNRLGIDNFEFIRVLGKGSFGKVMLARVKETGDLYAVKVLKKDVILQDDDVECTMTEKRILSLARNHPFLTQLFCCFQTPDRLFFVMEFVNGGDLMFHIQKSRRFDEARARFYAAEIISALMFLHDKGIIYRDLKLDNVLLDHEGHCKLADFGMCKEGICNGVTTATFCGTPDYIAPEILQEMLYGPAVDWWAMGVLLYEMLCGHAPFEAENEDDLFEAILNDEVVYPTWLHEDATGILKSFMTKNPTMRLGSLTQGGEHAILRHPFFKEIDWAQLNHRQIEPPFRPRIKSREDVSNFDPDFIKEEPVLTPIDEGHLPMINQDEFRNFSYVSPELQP", "UniProt P55211, sequence (whole entry, looked up)": "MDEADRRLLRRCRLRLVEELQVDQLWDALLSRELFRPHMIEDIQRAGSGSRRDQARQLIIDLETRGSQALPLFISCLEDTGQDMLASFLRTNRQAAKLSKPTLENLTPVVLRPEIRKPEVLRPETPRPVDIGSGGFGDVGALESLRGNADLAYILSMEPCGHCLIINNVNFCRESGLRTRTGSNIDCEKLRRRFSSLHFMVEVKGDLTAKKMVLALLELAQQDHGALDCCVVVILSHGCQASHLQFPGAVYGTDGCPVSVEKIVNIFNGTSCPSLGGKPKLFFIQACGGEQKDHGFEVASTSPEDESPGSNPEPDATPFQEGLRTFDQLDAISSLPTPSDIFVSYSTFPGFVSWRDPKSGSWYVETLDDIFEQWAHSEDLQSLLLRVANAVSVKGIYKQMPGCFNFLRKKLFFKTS", "UniProt Q01959, sequence (whole entry, looked up)": "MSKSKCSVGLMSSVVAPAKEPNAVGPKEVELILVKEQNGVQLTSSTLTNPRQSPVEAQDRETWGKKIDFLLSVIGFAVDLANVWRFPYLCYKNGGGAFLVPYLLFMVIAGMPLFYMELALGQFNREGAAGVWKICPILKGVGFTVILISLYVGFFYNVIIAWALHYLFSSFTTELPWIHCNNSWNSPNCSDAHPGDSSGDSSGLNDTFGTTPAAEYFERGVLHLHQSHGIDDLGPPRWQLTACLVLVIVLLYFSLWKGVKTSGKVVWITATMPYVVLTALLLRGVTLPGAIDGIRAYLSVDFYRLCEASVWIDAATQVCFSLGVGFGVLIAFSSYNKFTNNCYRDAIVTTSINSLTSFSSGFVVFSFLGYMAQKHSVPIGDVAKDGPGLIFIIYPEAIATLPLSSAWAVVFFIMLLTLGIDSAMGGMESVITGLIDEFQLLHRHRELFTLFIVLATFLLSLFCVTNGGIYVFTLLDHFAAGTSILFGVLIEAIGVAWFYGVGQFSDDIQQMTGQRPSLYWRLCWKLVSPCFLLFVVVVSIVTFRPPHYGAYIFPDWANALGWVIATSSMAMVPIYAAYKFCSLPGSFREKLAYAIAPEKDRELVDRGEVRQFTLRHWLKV", "UniProt Q8IYT8, sequence (whole entry, looked up)": "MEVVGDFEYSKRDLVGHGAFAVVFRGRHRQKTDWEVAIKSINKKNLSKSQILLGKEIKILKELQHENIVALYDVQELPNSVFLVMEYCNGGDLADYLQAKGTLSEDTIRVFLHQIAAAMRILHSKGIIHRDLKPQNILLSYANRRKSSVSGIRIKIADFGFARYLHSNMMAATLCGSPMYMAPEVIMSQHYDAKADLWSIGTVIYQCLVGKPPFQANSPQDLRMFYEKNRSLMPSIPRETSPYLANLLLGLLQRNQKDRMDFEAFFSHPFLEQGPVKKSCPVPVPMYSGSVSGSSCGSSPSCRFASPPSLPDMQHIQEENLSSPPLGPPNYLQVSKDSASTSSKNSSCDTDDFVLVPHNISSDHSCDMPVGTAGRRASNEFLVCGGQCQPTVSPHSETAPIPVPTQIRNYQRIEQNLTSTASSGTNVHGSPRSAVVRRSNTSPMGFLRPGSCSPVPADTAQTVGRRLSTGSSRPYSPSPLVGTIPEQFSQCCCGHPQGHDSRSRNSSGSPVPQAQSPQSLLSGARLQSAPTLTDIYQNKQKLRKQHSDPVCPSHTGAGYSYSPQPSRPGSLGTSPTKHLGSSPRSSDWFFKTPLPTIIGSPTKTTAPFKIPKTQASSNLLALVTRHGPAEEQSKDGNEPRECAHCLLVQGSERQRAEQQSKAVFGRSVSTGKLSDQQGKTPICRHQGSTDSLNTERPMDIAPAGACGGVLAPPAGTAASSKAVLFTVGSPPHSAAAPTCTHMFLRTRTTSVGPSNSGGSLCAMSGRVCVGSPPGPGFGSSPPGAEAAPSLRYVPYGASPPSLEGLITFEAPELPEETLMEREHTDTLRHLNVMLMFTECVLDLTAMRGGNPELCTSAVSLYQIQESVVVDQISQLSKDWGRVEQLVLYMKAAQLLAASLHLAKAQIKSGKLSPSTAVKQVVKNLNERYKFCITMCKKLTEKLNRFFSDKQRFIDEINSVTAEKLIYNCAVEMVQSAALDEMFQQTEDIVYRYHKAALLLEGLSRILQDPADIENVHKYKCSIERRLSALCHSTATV", "UniProt P30291, sequence (whole entry, looked up)": "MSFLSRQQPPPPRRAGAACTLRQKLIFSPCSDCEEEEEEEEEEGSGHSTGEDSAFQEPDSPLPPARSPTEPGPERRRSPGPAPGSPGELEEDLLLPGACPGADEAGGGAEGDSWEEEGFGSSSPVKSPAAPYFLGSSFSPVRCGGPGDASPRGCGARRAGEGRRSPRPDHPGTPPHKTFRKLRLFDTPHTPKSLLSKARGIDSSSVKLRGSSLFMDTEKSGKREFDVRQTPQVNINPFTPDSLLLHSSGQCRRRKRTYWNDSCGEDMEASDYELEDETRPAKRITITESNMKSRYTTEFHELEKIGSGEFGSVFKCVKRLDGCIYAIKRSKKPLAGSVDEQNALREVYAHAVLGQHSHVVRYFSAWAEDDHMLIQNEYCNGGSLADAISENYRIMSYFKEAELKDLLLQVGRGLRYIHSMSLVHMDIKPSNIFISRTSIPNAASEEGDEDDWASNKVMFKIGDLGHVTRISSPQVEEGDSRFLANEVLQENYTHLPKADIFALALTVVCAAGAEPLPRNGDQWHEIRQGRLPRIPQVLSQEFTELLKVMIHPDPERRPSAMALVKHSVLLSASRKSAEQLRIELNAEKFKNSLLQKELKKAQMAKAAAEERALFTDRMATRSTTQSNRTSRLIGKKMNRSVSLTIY"}
{"Structure (SMILES)": "CCC[C@@H](C(=O)c1ccccc1)N1CCCC1", "target or system": "SLC6A3 (Homo sapiens, UniProt Q01959)", "test": "transporter current, inhibitor", "setting": "with: dopamine 30 µM", "quantity": "maximal inhibition rate (kapp)", "result": "1.44 s⁻¹"}
{"Structure (SMILES)": "CC(C)[C@H]1NC(=O)C[C@H]2/C=C/CCSSC[C@@H](NC1=O)C(=O)N[C@H](Cc1cccc3ccccc13)C(=O)NCC(=O)O2", "target or system": "KIT (Homo sapiens, UniProt P10721, D816V)", "test": "enzyme activity, inhibitor", "setting": "10 µM", "quantity": "inhibition", "result": "-4.1%"}
{"Structure (SMILES)": "Nc1ccc(/C=C/C(=O)N2CCc3c(oc4c(-c5ccc(F)cc5)cc(-c5ccc(C(=O)N6CCC(F)(F)CC6)cn5)cc34)C2)cn1", "target or system": "ULK2 (Homo sapiens, UniProt Q8IYT8)", "test": "binding, competition with immobilised ligand", "setting": "1 µM", "quantity": "remaining binding", "result": "81%"}
{"Structure (SMILES)": "CC(C)CC(C(=O)N1CC2(CC1C#N)C(=O)Nc1ccccc12)N(C)C(=O)c1cc2c(F)cc(F)c(F)c2[nH]1 (stereo not shown)", "target or system": "Caspase-9 (CASP9, Homo sapiens, UniProt P55211)", "quantity": "Hill slope", "result": -0.33}
{"Structure (SMILES)": "O=C1NC2(CC2)COc2ncc(F)cc2[C@H]2COCCN2c2ccn3ncc1c3n2", "system": "Sprague-Dawley rat, female, thymus", "setting": "oral, 2.5 mg/kg/day, 4 weeks, end of treatment", "quantity": "organ-to-brain weight ratio", "result": "31.4 ± 4.98%"}
{"Structure (SMILES)": "COc1ccccc1-c1n[nH]c2nc(N[C@H]3CC[C@H](NS(=O)(=O)CC(C)C)CC3)ncc12", "test": "bead binding, competition bead pull-down, item: LINJ.21.1330", "system": "Leishmania donovani extract", "setting": "10 µM", "scale": "relative to: vehicle", "quantity": "relative abundance", "result": 0.97}
{"Structure (SMILES)": "CCCCCn1cc(C(=O)c2ccc3c(c2)CC(C)(C)C3)c2ccccc21", "target or system": "CNR2", "test": "agonist, BRET", "scale": "relative to: Gαi1 over β-arrestin 2, reference agonist", "quantity": "bias factor (ΔΔlog(Emax/EC50))", "result": -0.59}
{"Structure (SMILES)": "CC12CCC3C(CC=C4CC(OS(=O)(=O)O)CCC43C)C1CCC2=O (stereo not shown)", "target or system": "Cytochrome P450 3A7 (CYP3A7, Homo sapiens, UniProt P24462)", "test": "16α-hydroxylation, substrate, recombinant Supersomes", "quantity": "Hill coefficient", "result": 1.2}
{"Structure (SMILES)": "Cc1ccc2c(C(C[N+](=O)[O-])c3cccs3)c(-c3ccccc3)[nH]c2c1 (stereo not shown)", "target or system": "CNR1 (Homo sapiens, UniProt P21554, Y397F)", "test": "Gαi1-γ2 dissociation, BRET", "quantity": "Emax", "result": "56.6 ± 0.99%"}
{"Structure (SMILES)": "COC1CN([C@H]2CC[C@H]([C@@H](C)n3c(C)c(C(=O)NCc4c(SC)cc(C)[nH]c4=O)c4ccccc43)CC2)C1", "target or system": "EZH2", "test": "binding, TR-FRET", "setting": "with: H3K27me3 activating peptide", "quantity": "residence time", "result": "8400 min"}
{"Structure (SMILES)": "COc1ccccc1C(C[N+](=O)[O-])c1c(-c2ccccc2)[nH]c2ccccc12 (stereo not shown)", "target or system": "CNR1 (Homo sapiens, UniProt P21554, Y172A)", "test": "Gαi1-γ2 dissociation, BRET", "quantity": "Emax", "result": "80.3 ± 2.54%"}
{"Structure (SMILES)": "Nc1ccn([C@@H]2O[C@H](COP(=O)(O)OP(=O)(O)OP(=O)(O)O)[C@@H](O)[C@@H]2O)c(=O)n1", "target or system": "RNA-directed RNA polymerase PB1, with PA and PB2 (Influenza B virus, UniProt Q5V8Y6)", "test": "single-nucleotide incorporation, substrate", "quantity": "Vmax", "result": "0.47 product fraction"}
{"Structure (SMILES)": "CC(C)(C)C(=O)OCOP(=O)(OCOC(=O)C(C)(C)C)C1CCCN(O)C1=O (stereo not shown)", "target or system": "SF-295", "quantity": "GI50", "result": "3.9 µM"}
{"Structure (SMILES)": "CCCCCn1cc(C(=O)c2ccc3ccccc3c2)c2ccccc21", "target or system": "CNR2", "test": "cAMP inhibition, agonist, CAMYEL BRET biosensor", "setting": "with: forskolin 10 µM", "scale": "relative to: reference agonist at wild type", "quantity": "Emax", "result": "75.1 ± 5.1%"}
{"Structure (SMILES)": "O=C1NC(=O)c2c1c1cc(F)c[n+]3c1c1c2c2cc(O)ccc2[n]1[Ru-4]312([N]=C=S)[S+]3CC[S+]1CC[S+]2CC3 (stereo not shown)", "target or system": "PRKCH (Homo sapiens, UniProt P24723)", "test": "enzyme activity", "setting": "100 nM, human enzyme, with: 10 µM ATP", "scale": "relative to: untreated", "quantity": "remaining activity", "result": "84%"}
{"Structure (SMILES)": "COC1CN([C@H]2CC[C@H]([C@@H](C)n3c(C)c(C(=O)NCc4c(Cl)cc(C)[nH]c4=O)c4ccccc43)CC2)C1", "target or system": "EZH2", "test": "binding, TR-FRET", "setting": "with: H3K27me3 activating peptide", "quantity": "residence time", "result": "162 min"}
{"Structure (SMILES)": "Cc1sc2c(c1C)C(c1ccc(Cl)cc1)=N[C@@H](CC(=O)OC(C)(C)C)c1nnc(C)n1-2", "target or system": "Bromodomain-containing protein 3, BD1 (BRD3, Homo sapiens, UniProt Q15059)", "test": "isothermal titration calorimetry", "setting": "15 °C, reverse titration", "quantity": "observed ΔH", "result": "-6.57 ± 0.017 kcal/mol"}
{"Structure (SMILES)": "CS(C)(=O)=Nc1ccc(-c2ccc(-c3nc4cc(O[C@@H]5CO[C@H]6[C@@H]5OC[C@H]6O)[nH]c4cc3F)cc2)cc1", "target or system": "WEE1 (Homo sapiens, UniProt P30291)", "test": "enzyme activity, inhibitor", "setting": "10 µM", "quantity": "inhibition", "result": "10%"}
{"Structure (SMILES)": "CSc1cc(C)[nH]c(=O)c1CNC(=O)c1c(C)n([C@H](C)C2CCN(CC(F)(F)F)CC2)c2ccccc12", "target or system": "EZH2", "test": "binding, jump dilution", "setting": "with: H3K27me3 activating peptide", "quantity": "residence time", "result": "780 min"}
{"Structure (SMILES)": "CC[C@H](C)[C@H](NC(=O)[C@H](Cc1ccccc1)NC(=O)[C@H](CCC(=O)O)NC(=O)[C@H](CCCCN)NC(=O)[C@H](C)NC(=O)[C@H](C)NC(=O)[C@H](CCC(N)=O)NC(=O)CNC(=O)[C@H](CCC(=O)O)NC(=O)[C@H](CC(C)C)NC(=O)[C@H](Cc1ccc(O)cc1)NC(=O)[C@H](CO)NC(=O)[C@H](CO)NC(=O)[C@@H](NC(=O)[C@H](CC(=O)O)NC(=O)[C@H](CO)NC(=O)[C@@H](NC(=O)[C@H](Cc1ccccc1)NC(=O)[C@@H](NC(=O)CNC(=O)[C@@H](N)CCC(=O)O)[C@@H](C)O)[C@@H](C)O)C(C)C)C(=O)N[C@@H](C)C(=O)N[C@@H](Cc1c[nH]c2ccccc12)C(=O)N[C@@H](CC(C)C)C(=O)N[C@H](C(=O)N[C@@H](CCCCN)C(=O)NCC(=O)N[C@@H](CCCNC(=N)N)C(N)=O)C(C)C", "target or system": "GLP1R (Homo sapiens, UniProt P43220)", "test": "cAMP, agonist", "quantity": "Emax", "result": "84.8%"}
{"Structure (SMILES)": "COc1cc(C)[nH]c(=O)c1CNC(=O)c1c(C)n([C@H](C)[C@H]2CC[C@H](N3CC(OC)C3)CC2)c2ccccc12", "target or system": "EZH2", "test": "binding, TR-FRET", "setting": "with: H3K27me3 activating peptide", "quantity": "residence time", "result": "360 min"}
{"Structure (SMILES)": "CN(C)[C@H]1C[C@@]23CC[C@@]4(O2)C(=CC[C@]2(C)[C@@H](c5ccc6ccncc6c5)CC[C@H]24)C=C3[C@@H](O)[C@@H]1O", "target or system": "PIP4K2A (Homo sapiens, UniProt P48426)", "test": "ATP probe labelling, inhibitor, KiNativ profiling", "setting": "1 µM", "quantity": "inhibition", "result": "-5%"}
{"note": "Repeated from above:"}
{"Structure (SMILES)": "COC1CN([C@H]2CC[C@H]([C@@H](C)n3c(C)c(C(=O)NCc4c(Cl)cc(C)[nH]c4=O)c4ccccc43)CC2)C1", "target or system": "EZH2", "test": "binding, TR-FRET", "setting": "with: H3K27me3 activating peptide", "quantity": "residence time", "result": "162 min"}
{"Structure (SMILES)": "Cc1sc2c(c1C)C(c1ccc(Cl)cc1)=N[C@@H](CC(=O)OC(C)(C)C)c1nnc(C)n1-2", "target or system": "Bromodomain-containing protein 3, BD1 (BRD3, Homo sapiens, UniProt Q15059)", "test": "isothermal titration calorimetry", "setting": "15 °C, reverse titration", "quantity": "observed ΔH", "result": "-6.57 ± 0.017 kcal/mol"}
{"Structure (SMILES)": "CS(C)(=O)=Nc1ccc(-c2ccc(-c3nc4cc(O[C@@H]5CO[C@H]6[C@@H]5OC[C@H]6O)[nH]c4cc3F)cc2)cc1", "target or system": "WEE1 (Homo sapiens, UniProt P30291)", "test": "enzyme activity, inhibitor", "setting": "10 µM", "quantity": "inhibition", "result": "10%"}
